Measured values from different studies.
± gives the spread as reported.
Target: Cytochrome P450 1A2 (CYP1A2, Homo sapiens, UniProt P05177)
Chain of UniProt P05177 (whole entry, looked up): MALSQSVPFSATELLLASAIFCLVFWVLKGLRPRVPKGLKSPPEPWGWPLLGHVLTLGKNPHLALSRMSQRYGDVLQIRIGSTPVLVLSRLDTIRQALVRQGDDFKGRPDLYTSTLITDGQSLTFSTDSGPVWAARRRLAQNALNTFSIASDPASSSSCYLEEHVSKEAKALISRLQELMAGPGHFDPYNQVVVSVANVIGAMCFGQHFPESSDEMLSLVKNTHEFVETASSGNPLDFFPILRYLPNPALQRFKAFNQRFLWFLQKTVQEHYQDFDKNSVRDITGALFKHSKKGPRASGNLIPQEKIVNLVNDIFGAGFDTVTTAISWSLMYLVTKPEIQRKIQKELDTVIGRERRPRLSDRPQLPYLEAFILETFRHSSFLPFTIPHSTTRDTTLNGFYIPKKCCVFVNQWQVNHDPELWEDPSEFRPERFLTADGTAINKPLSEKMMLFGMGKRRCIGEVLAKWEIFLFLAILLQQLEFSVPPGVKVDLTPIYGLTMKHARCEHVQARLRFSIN

Cn1c(=O)c2c(ncn2C)n(C)c1=O — half-life (human, plasma; oral, 200 mg, day 1, alone, geometric mean): 4.67 h
CC(C)=CCc1c(O)cc2c(c1O)C(=O)C[C@@H](c1ccc(O)cc1)O2 — inhibition (10 µM, pH 7.4): 21.4 ± 0.8%
C=CC(=O)Nc1cc(Nc2nccc(-c3cn(C)c4ccccc34)n2)c(OCC(F)(F)F)nc1N(C)CCNC — intrinsic clearance (substrate depletion; recombinant human CYP; 1 µM): 0.56 µL/min/pmol
O=c1cc(-c2ccccc2)oc2ccc(O)cc12 — remaining activity (LC-MS/MS, refers to: acetaminophen; human liver microsomes; 10 µM, 30 min, pH 7.4, with: 50 µM phenacetin): 24.5 ± 0.41%
C[C@H]1CN(C2COC2)CCN1c1ccc(Nc2cc(-c3ccnc(N4CCn5c(cc6c5CC(C)(C)C6)C4=O)c3CO)cn(C)c2=O)nc1 — remaining compound (substrate; recombinant enzyme; 1 µM, 60 min): 97.2 ± 12.2%
O=c1c(O)c(-c2ccccc2)oc2ccccc12 — remaining activity (LC-MS/MS, refers to: acetaminophen; human liver microsomes; 10 µM, 30 min, pH 7.4, with: 50 µM phenacetin): 11.5 ± 0.23%
COc1cc(O)c(CC=C(C)C)c2c1C(=O)CC(c1ccc(O)cc1)O2 (stereo not drawn) — inhibition (enzyme activity, inhibitor; human liver microsomes; 1 µM, pH 7.4, with: phenacetin): < 10%
COc1ccc2oc(-c3ccccc3)cc(=O)c2c1 — remaining activity (LC-MS/MS, refers to: acetaminophen; human liver microsomes; 10 µM, 30 min, pH 7.4, with: 50 µM phenacetin): 35.11 ± 0.12%
CC(C)=CCc1c(O)cc(O)c2c1O[C@H](c1ccc(O)cc1)CC2=O — inhibition (enzyme activity, inhibitor; 10 µM, pH 7.4): 88.4 ± 1.6%
COc1ccc2oc(-c3ccccc3)c(OC)c(=O)c2c1 — remaining activity (LC-MS/MS, refers to: acetaminophen; human liver microsomes; 10 µM, 30 min, pH 7.4, with: 50 µM phenacetin): 22.35 ± 0.21%
Cc1ccc2c(c1)C(=O)[C@]1(O)CCN(c3ccc4nc(C)ccc4c3)C1=N2.Cl — half-life (metabolic stability; recombinant CYP isoform): 0.663 h
C=CC(=O)N1C[C@H](Nc2ncnc3[nH]ccc23)CC[C@@H]1C — kinact (time-dependent inhibitor; human liver microsomes): 0.00153 s⁻¹
N#C[C@H](C[C@@H]1CCCNC1=O)NC(=O)[C@H](CC1CC1)NC(=O)c1cc2cccc(Cl)c2[nH]1 — fraction metabolised (ISEF abundance scaling; 2 µM, pH 7.4): < 1%
COc1cc(O)c(CC=C(C)C)c(O)c1C(=O)/C=C/c1ccc(O)cc1 — inhibition (enzyme activity, inhibitor; human liver microsomes; 1 µM, pH 7.4, with: phenacetin): < 10%
Cn1c(=O)c2c(ncn2C)n(C)c1=O — AUC(0-t) (refers to: paraxanthine; human, plasma; oral, 50 mg caffeine, day 14, cocktail with binimetinib and encorafenib): 7520 ng·h/mL

Excerpt of the above:
CC(C)=CCc1c(O)cc2c(c1O)C(=O)C[C@@H](c1ccc(O)cc1)O2 — inhibition (10 µM, pH 7.4): 21.4 ± 0.8%
C=CC(=O)Nc1cc(Nc2nccc(-c3cn(C)c4ccccc34)n2)c(OCC(F)(F)F)nc1N(C)CCNC — intrinsic clearance (substrate depletion; recombinant human CYP; 1 µM): 0.56 µL/min/pmol
